Measurements of several laboratories.
Each numbered part is a random draw from the data of one study; scales do not carry over between parts.
Sequence of UniProt Q16539 (whole entry, looked up): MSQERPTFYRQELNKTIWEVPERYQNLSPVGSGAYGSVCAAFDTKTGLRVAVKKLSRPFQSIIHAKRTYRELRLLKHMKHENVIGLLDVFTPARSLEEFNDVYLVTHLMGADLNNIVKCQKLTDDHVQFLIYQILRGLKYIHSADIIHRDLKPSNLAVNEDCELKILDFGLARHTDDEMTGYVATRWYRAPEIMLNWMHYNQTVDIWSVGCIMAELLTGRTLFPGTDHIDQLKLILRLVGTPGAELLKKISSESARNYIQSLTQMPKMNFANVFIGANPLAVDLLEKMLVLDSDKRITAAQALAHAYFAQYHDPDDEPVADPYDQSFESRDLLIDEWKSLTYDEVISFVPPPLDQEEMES
Sequence of UniProt P51956 (whole entry, looked up): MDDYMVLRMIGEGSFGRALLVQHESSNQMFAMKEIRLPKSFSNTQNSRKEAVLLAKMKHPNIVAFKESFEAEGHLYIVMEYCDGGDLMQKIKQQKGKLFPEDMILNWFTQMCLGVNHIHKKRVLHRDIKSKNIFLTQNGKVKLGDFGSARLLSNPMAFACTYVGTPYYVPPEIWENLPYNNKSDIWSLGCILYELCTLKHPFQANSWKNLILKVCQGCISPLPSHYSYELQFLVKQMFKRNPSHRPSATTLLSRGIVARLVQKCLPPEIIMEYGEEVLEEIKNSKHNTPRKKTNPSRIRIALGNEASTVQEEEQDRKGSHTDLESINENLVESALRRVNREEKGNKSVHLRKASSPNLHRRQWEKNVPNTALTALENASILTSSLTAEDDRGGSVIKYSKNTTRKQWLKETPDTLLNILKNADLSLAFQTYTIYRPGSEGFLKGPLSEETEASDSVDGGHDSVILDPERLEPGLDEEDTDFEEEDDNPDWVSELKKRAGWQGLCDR
Sequence of UniProt Q86UE8 (whole entry, looked up): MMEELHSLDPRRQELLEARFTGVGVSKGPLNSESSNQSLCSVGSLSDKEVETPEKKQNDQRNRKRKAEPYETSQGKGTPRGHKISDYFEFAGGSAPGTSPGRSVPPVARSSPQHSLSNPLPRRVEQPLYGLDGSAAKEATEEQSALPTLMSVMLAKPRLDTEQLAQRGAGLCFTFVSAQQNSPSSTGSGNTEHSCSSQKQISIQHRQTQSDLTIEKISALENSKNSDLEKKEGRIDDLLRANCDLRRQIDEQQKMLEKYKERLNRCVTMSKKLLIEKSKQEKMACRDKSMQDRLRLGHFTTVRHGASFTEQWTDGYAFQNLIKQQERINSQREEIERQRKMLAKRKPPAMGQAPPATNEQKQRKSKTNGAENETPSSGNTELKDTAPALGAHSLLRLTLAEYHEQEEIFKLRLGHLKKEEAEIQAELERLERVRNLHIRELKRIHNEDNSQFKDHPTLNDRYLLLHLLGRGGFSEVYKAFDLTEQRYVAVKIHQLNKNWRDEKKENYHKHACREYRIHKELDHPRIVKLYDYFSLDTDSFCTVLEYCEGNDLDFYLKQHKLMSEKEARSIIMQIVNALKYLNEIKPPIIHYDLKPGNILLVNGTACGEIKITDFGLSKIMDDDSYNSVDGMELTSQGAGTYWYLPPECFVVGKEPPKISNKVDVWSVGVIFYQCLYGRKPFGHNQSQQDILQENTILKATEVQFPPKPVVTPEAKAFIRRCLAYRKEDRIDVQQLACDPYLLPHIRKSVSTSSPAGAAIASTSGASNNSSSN
Sequence of UniProt P50613 (whole entry, looked up): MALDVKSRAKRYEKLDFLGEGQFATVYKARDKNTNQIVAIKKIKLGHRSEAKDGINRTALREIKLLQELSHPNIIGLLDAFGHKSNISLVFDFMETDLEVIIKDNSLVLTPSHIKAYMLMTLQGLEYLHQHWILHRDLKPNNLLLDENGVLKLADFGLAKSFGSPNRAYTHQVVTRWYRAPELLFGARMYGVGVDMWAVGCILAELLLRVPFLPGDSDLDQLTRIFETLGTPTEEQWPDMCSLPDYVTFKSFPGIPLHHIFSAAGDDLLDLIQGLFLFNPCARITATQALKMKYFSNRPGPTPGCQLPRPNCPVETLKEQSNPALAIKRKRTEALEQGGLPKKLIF
Sequence of UniProt Q7KZI7 (whole entry, looked up): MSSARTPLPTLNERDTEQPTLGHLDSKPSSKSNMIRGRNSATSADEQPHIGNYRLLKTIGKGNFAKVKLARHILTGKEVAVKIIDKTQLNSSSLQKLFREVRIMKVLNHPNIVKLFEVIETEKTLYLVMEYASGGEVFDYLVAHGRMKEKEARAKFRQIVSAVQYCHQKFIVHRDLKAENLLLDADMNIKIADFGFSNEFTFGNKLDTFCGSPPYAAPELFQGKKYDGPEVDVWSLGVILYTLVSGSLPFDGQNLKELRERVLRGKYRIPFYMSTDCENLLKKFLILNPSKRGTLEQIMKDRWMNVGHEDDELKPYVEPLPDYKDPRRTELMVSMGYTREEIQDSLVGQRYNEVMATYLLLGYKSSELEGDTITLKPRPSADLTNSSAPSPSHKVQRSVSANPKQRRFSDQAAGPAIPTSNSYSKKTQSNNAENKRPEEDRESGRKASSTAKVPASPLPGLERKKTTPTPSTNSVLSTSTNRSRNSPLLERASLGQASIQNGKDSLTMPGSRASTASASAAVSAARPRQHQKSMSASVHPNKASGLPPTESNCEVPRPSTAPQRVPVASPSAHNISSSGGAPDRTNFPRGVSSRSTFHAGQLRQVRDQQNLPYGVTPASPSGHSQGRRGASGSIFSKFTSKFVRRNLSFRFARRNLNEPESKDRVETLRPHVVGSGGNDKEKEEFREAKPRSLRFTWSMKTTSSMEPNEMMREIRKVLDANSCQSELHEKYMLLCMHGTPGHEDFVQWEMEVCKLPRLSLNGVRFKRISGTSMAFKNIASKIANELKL
Sequence of UniProt P35968 (whole entry, looked up): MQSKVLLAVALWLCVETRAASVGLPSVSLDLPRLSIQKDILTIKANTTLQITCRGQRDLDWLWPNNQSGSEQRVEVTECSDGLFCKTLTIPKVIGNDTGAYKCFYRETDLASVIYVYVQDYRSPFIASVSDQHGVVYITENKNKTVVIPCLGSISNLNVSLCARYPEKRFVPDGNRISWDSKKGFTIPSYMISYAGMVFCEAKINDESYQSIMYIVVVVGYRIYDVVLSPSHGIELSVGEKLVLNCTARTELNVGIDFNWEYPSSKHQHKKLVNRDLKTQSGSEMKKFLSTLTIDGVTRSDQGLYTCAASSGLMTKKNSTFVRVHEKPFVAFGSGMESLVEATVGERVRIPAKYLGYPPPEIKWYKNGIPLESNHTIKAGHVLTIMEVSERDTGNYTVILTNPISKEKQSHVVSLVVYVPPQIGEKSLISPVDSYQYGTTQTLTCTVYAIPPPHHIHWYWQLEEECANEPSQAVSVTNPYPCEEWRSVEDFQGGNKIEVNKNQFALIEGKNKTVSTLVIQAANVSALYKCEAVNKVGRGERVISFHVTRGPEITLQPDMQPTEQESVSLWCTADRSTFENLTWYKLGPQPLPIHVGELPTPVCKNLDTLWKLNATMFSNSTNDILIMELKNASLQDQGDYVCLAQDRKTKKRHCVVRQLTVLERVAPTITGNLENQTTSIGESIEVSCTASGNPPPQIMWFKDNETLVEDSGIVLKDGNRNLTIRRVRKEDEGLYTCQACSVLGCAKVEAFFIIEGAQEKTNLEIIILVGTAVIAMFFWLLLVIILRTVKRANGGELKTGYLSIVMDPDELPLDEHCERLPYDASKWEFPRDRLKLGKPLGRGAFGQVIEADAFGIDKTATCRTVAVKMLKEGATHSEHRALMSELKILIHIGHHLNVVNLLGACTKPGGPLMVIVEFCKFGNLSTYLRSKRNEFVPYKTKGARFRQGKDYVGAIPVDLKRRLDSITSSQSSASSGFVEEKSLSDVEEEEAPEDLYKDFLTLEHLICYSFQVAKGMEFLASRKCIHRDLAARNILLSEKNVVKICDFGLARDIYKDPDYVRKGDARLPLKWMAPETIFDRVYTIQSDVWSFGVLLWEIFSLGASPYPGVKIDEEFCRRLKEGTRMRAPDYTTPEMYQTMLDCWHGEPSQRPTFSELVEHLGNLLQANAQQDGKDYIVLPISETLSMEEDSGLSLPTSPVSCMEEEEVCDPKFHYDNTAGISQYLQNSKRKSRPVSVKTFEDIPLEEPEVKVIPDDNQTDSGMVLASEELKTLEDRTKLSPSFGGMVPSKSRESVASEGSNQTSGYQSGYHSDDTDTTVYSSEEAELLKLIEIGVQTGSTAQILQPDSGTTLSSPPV
Sequence of UniProt P06493 (whole entry, looked up): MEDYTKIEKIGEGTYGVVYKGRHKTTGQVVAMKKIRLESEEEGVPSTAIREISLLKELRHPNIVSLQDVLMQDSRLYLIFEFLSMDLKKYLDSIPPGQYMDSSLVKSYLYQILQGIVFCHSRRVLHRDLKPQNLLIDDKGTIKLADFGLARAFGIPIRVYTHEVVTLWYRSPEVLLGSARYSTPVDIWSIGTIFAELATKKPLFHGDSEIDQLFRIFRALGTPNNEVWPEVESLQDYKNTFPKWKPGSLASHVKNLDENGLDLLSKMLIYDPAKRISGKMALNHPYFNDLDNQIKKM

Sample 1
Organism: Plasmodium berghei
Mode: inhibitor
Cells: Huh-7
Strain: liver stage
Tested at: 10 µM
Time: 24 h
Relative to: untreated control
Measurement: infection rate
O=C(O)P(=O)(O)O: 97.2%
NCc1ccc(S(N)(=O)=O)cc1: 23.4%
CC1Cc2ccccc2N1NC(=O)c1ccc(Cl)c(S(N)(=O)=O)c1 (centres unmarked): 112%
O=C(O)c1ccccc1Nc1cccc(C(F)(F)F)c1: 94.3%
CC1(C)O[C@@H]2C[C@H]3[C@@H]4C[C@H](F)C5=CC(=O)C=C[C@]5(C)[C@H]4[C@@H](O)C[C@]3(C)[C@]2(C(=O)CO)O1: 104%
CN(C)CCCN1c2ccccc2CCc2ccccc21: 89.2%

Sample 2
Target: Calcium/calmodulin-dependent protein kinase type II subunit alpha (CAMK2A, Homo sapiens, UniProt Q9UQM7)
Sequence of UniProt Q9UQM7 (whole entry, looked up): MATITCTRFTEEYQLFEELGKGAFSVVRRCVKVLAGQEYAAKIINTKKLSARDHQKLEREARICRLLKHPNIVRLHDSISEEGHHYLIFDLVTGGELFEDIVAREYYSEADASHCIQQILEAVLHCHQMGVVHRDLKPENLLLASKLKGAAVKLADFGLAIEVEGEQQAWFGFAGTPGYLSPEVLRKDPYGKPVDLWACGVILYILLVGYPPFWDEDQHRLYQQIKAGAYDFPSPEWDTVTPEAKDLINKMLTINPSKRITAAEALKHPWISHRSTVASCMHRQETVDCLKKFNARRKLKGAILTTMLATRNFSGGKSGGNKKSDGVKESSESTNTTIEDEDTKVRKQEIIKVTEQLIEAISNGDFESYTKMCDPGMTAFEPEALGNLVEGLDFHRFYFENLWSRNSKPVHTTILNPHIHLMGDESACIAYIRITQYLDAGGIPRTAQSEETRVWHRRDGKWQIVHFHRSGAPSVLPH
Read-out: enzyme activity
Mode: inhibitor
Tested at: 10 µM
Measurement: inhibition
CCN(CC)C(=O)/C(C#N)=C/c1cc(O)c(O)c([N+](=O)[O-])c1: -2%
Oc1ccc(OC2CCCCO2)cc1 (centres unmarked): -41%
C=CN1CCCC1=O: -1%
NC(=O)N1CCC(CC(=O)N2CCC([C@H]3c4ncc(Br)cc4CCc4cc(Cl)cc(Br)c43)CC2)CC1: 11%
COC(=O)c1ccccc1O[C@@H]1O[C@H](CO[C@@H]2OC[C@@H](O)[C@H](O)[C@H]2O)[C@@H](O)[C@H](O)[C@H]1O: -2%
CCOC(=O)c1ncn2c1CN(C)C(=O)c1cc(F)ccc1-2: -7%

Sample 3
SMILES: CCc1ccccc1C(=O)Nc1n[nH]c2c(C)c(F)c(C3C(C#N)=C(C)N(C)C(C)=C3C#N)cc12
Read-out: cell-free assay
Technique: competition with immobilised ligand
Tested at: 1 µM
Measurement: remaining binding
Death-associated protein kinase 1 (DAPK1, Homo sapiens, UniProt P53355): 100%
Cyclin-dependent kinase 7 (CDK7, Homo sapiens, UniProt P50613): 90%
Focal adhesion kinase 1 (PTK2, Homo sapiens, UniProt Q05397): 82%
Serine/threonine-protein kinase pim-1 (PIM1, Homo sapiens, UniProt P11309): 100%
Serine/threonine-protein kinase 35 (STK35, Homo sapiens, UniProt Q8TDR2): 100%
Macrophage colony-stimulating factor 1 receptor (CSF1R, Homo sapiens, UniProt P07333): 100%

Sample 4
SMILES: Cc1cc2ncc(-c3ccccc3)nc2cc1C
Read-out: enzyme activity
Mode: inhibitor
Tested at: 0.5 µM
Relative to: control
Measurement: remaining activity
cGMP-dependent protein kinase 2 (PRKG2, Homo sapiens, UniProt Q13237): 99.3%
Serine/threonine-protein kinase Nek3 (NEK3, Homo sapiens, UniProt P51956): 93.7%
Mitogen-activated protein kinase 1 (MAPK1, Homo sapiens, UniProt P28482): 88%
Calcium/calmodulin-dependent protein kinase type 1B (PNCK, Homo sapiens, UniProt Q6P2M8): 96.3%
Cyclin-dependent kinase 1, with cyclin A (CDK1, Homo sapiens, UniProt P06493): 94.4%
Vascular endothelial growth factor receptor 2 (KDR, Homo sapiens, UniProt P35968): 99.1%
Serine/threonine-protein kinase MARK2 (MARK2, Homo sapiens, UniProt Q7KZI7): 84.5%
MAP/microtubule affinity-regulating kinase 4 (MARK4, Homo sapiens, UniProt Q96L34): 105%
Mitogen-activated protein kinase 14 (MAPK14, Homo sapiens, UniProt Q16539): 103%
Serine/threonine-protein kinase MRCK beta (CDC42BPB, Homo sapiens, UniProt Q9Y5S2): 101%
RAC-beta serine/threonine-protein kinase (AKT2, Homo sapiens, UniProt P31751): 99.7%
Ribosomal protein S6 kinase alpha-4 (RPS6KA4, Homo sapiens, UniProt O75676): 99.4%
Serine/threonine-protein kinase PAK 3 (PAK3, Homo sapiens, UniProt O75914): 96.2%
Serine/threonine-protein kinase tousled-like 2 (TLK2, Homo sapiens, UniProt Q86UE8): 100%

Some of these lines once more (sample 2):
C=CN1CCCC1=O: -1%
NC(=O)N1CCC(CC(=O)N2CCC([C@H]3c4ncc(Br)cc4CCc4cc(Cl)cc(Br)c43)CC2)CC1: 11%
COC(=O)c1ccccc1O[C@@H]1O[C@H](CO[C@@H]2OC[C@@H](O)[C@H](O)[C@H]2O)[C@@H](O)[C@H](O)[C@H]1O: -2%
CCOC(=O)c1ncn2c1CN(C)C(=O)c1cc(F)ccc1-2: -7%
